# Results of several laboratories.
# Compare with care: the assays were run in different laboratories. “And” joins repeats or separate records; there may be more than shown. ± gives the spread as reported.
# nusB with NusE: Transcription antitermination protein NusB, with NusE (nusB, Bacillus subtilis, UniProt P54520)
# TGFBR2: TGF-beta receptor type-2 (TGFBR2, Homo sapiens, UniProt P37173)
# HTR7: 5-hydroxytryptamine receptor 7 (HTR7, Homo sapiens, UniProt P34969)
# SCN4A: Sodium channel protein type 4 subunit alpha (SCN4A, Homo sapiens, UniProt P35499)
# HTR2C: 5-hydroxytryptamine receptor 2C (HTR2C, Homo sapiens, UniProt P28335)
# HTR2A: 5-hydroxytryptamine receptor 2A (HTR2A, Homo sapiens, UniProt P28223)
# gag-pol integrase: Gag-Pol polyprotein, integrase (gag-pol, Human immunodeficiency virus type 1 group M subtype B, UniProt P04585)
Compound,target,assay,test system,conditions,inhibition
CC(N)(Cc1c[nH]c2ccccc12)C(=O)O (racemic),"Sodium- and chloride-dependent neutral and basic amino acid transporter B(0+) (Slc6a14, Mus musculus, UniProt Q9JMA9)",transporter current,Xenopus oocytes,1 mM,92.3 ± 1.1%
CCNC(=O)Nc1ccc(OCc2cocc2COc2ccc(NC(=O)NCC)cc2)cc1,nusB with NusE,"NusE binding, inhibitor, competitive ELISA",,25 µM,12%
COc1cccc(F)c1Cn1cnc(-c2ccncc2)c1-c1ccc(F)cc1,TGFBR2,inhibitor,,1 µM,42%
O=C1c2ccccc2CCCN1CCCCN1CCN(c2ccccn2)CC1,HTR7,radioligand binding,,"concentration not given, added: [3H]LSD",98.4%
CCNC(=O)c1cnn(-c2ccc(-n3ccc(Cl)c(Cl)c3=O)cc2)c1C(F)(F)F,"Short transient receptor potential channel 7 (Homo sapiens, UniProt Q9HCX4)","ion current, inhibitor, whole-cell patch clamp",,"10 µM, added: carbachol",inhibited
COc1c([C@H]2[C@H](C(=O)Nc3ccnc(C(N)=O)c3)O[C@@](C)(C(F)(F)F)[C@H]2C)ccc(F)c1F,"Sodium channel protein type 10 subunit alpha (SCN10A, Homo sapiens, UniProt Q9Y5Y9)","ion current, antagonist, whole-cell patch clamp",HEK293T cells,"10 nM, half-inactivated state (TP2)",96.8%
CC(C)c1noc2ncc(C(=O)c3ccccc3O)cc12,SCN4A,"ion current, whole-cell patch-clamp",,"10 µM, hNaV1.4",1.74%
CCS(=O)(=O)c1nc(S(=O)(=O)c2ccccc2Cl)c(N2CCN(C)C(=O)[C@H]2C)s1,HTR2C,,,10 µM,2.91%
COc1cccc(OC[C@H]2CN(CCN3CCc4ccccc43)CCO2)c1,HTR2A,radioligand binding,,"concentration not given, added: [3H]ketanserin",69.1%
COc1ccc(-c2cn(C)c3nc(Cl)ccc23)cc1,gag-pol integrase,"strand transfer, inhibitor",HIV-1,10 µM,56%
NC(=O)c1ccc(-c2nc(-c3ccc4c(c3)OCO4)c(-c3ccccn3)[nH]2)cc1,TGFBR2,inhibitor,,1 µM,2%
O=C(Nc1cccc2c(=O)cc(-c3nnn[nH]3)oc12)c1ccc(OCCCCc2ccccc2)cc1,"LRRC8A/LRRC8C (Homo sapiens, UniProt Q8IWT6+Q8TDW0, M48D/T48D)","ion current, whole-cell patch clamp",HCT LRRC8-/- cells,"10 µM, +100 mV, T48D/M48D heteromers",4.72% and 0.627% and 3.06%
O=C(/C=C/c1cccc(OS(=O)(=O)Oc2ccc(C(F)(F)F)cc2)c1)NO,"Histone deacetylase 4 (HDAC4, Homo sapiens, UniProt P56524)",,,10 µM,14%
COc1cc2c(cc1OC)C(=O)C(CC1CCN(Cc3ccccc3)CC1)C2 (centres unmarked),HTR2A,radioligand binding,,"concentration not given, added: [3H]ketanserin",29.7%
c1cc2cc(C3=NCCN3)ccc2cc1C1=NCCN1,"Breakpoint cluster region protein, GAP domain (Homo sapiens, UniProt P11274)","GAP activity, inhibitor",,"10 µM, selectivity counter screen",-2.16%
Fc1ccc(-c2c(-c3ccncc3)ncn2-c2ccc(-c3ccccc3)cc2)cc1,TGFBR2,inhibitor,,1 µM,43%
Cc1ccnc(OC[C@H]2CN(CC(=O)N3CCc4ccccc43)CCO2)c1,HTR2C,radioligand binding,,"concentration not given, added: [3H]mesulergine",20.3%
COc1ccc(F)cc1C(=O)NCc1ccc(-c2nn([C@@H](C)C(F)(F)F)c(N)c2C(N)=O)cc1,"Tyrosine-protein kinase HCK (HCK, Homo sapiens, UniProt P08631)","target engagement, competitive chemoproteomics",human PBMCs,0.1 µM,0.1%
Cc1nn(-c2ccccc2)c(=O)c2nocc12,"Metabotropic glutamate receptor 2 (GRM2, Homo sapiens, UniProt Q14416)","cAMP accumulation, antagonist",,"10 µM, added: glutamate 1 µM, forskolin",-33%
CCN1CCN(Cc2ccc(NC(=O)c3ccc(C)c(Oc4ccnc5[nH]ccc45)c3)cc2C(F)(F)F)CC1,"Serine/threonine-protein kinase Nek8 (NEK8, Homo sapiens, UniProt Q86SG6)",,A-375,5 µM,-22.4%
CN(C(=O)n1cnc(-c2ccc[n+]([O-])c2)c1)C1CCCCC1,HTR2C,receptor binding,,"10 µM, subtype 5HT2C",6.81%
COc1ccc(-n2nc(OCCCN3CCCCC3)ccc2=O)cc1,NMDA receptor,radioligand binding,,1.0 µM,32.1 ± 3.44%
CC[C@@H]1[C@H](F)C(=O)N[C@@H]1COc1nccc2cc(C(N)=O)c(OC)cc12,"1-phosphatidylinositol 3-phosphate 5-kinase (PIKFYVE, Homo sapiens, UniProt Q9Y2I7)","ATP probe binding, KiNativ profiling, measured: ATP loop probe site",THP-1 cell lysate,0.04 mM,8.8%
Fc1ccc(-c2ncn(-c3ccc4ccccc4c3)c2-c2ccncc2)cc1,TGFBR2,inhibitor,,1 µM,10%
CC(C)(NC(=O)O[C@@H]1CN2CCC1CC2)c1csc(-c2ccc(F)cc2)n1,"Protein arginine N-methyltransferase 1 (PRMT1, Homo sapiens, UniProt Q99873)","enzyme activity, inhibitor",,100 µM,no inhibition
Cc1ccc(-c2ccc3c(-c4ccccc4)cn(C)c3n2)cc1,gag-pol integrase,"strand transfer, inhibitor",HIV-1,10 µM,51.7%
CCNC(=O)Nc1cccc(OC/C=C\COc2cccc(NC(=O)NCC)c2)c1,nusB with NusE,"NusE binding, inhibitor, competitive ELISA",,25 µM,15%
Cn1cnc(Br)c1C1=CN(c2ncnc3[nH]cnc23)CCS1,"Serine/threonine-protein kinase D3 (PRKD3, Homo sapiens, UniProt O94806)","kinase activity, HotSpot",,2 µM,94.4%
Cc1ccc(C(=O)Nc2ccc3ccccc3c2)o1,SCN4A,"ion current, whole-cell patch-clamp",,"10 µM, hNaV1.4",7.02%
Cc1ncccc1OC[C@H]1CN(CCN2CCc3ccccc32)CCO1,HTR7,radioligand binding,,"concentration not given, added: [3H]LSD",64.2%
COc1cc(C(=O)NS(=O)(=O)c2ccccc2C)ccc1Cc1cn(C)c2ccc(NC(=O)OC3CCCC3)cc12,"LRRC8A/LRRC8C (Homo sapiens, UniProt Q8IWT6+Q8TDW0, L134K/L136K)","ion current, whole-cell patch clamp",HCT LRRC8-/- cells,"3 µM, +100 mV, L134K/L136K heteromers",34% and 71.1% and 48.6% and 26.8% and 48.9%
CCNC(=O)Nc1ccc(OC/C=C\COc2ccc(CC(=O)O)cc2)cc1,nusB with NusE,"NusE binding, inhibitor, competitive ELISA",,25 µM,17%
O=C(NO)c1ccc(CN2CCCCc3ccccc32)c(F)c1,HTR2C,"radioligand binding, radioligand displacement",,"10 µM, mean of replicates",7.99%
N=C(NN)N/N=C/c1ccc(OC/C=C\COc2ccc(/C=N/NC(=N)NN)cc2)cc1,nusB with NusE,"NusE binding, inhibitor, competitive ELISA",,25 µM,31%
Clc1cccc(OC[C@H]2CN(CCN3CCc4ccccc43)CCO2)c1,HTR2C,radioligand binding,,"concentration not given, added: [3H]mesulergine",13.6%
Cn1cc(-c2ccccc2)c2ccc(-c3ccsc3)nc21,gag-pol integrase,"strand transfer, inhibitor",HIV-1,10 µM,41.6%
O=C(O)c1cn(C2CC2)c2cc(N3CCNCC3)c(F)cc2c1=O,"DNA gyrase subunit A (gyrA, Escherichia coli K-12, UniProt P0AES4)","enzyme activity, inhibitor, DNA supercoiling",,0.01 µM,15.9%
CC(=O)c1ccc(OC/C=C\COc2ccc(C(C)=O)cc2)cc1,nusB with NusE,"NusE binding, inhibitor, competitive ELISA",,25 µM,17%
Cc1cc(-c2ccnc3[nH]cc(F)c23)cc(F)c1[C@@]1(O)[C@H](C)CN(C(=O)CN)C[C@@H]1C,ROCK1 and ROCK2,"ATP probe binding, KiNativ, measured: Lys2 site",HEK293T cell lysate,0.1 µM,12.7%
O=C(CN1CCO[C@@H](COc2ccccn2)C1)N1CCc2ccccc21,HTR7,radioligand binding,,"concentration not given, added: [3H]LSD",-15.6%
Cc1cc(-c2ccnc3[nH]cc(F)c23)cc(F)c1[C@@]1(O)[C@H](C)CN(C2CCS(=O)(=O)CC2)C[C@@H]1C,ROCK1 and ROCK2,"ATP probe binding, KiNativ, measured: Lys2 site",HEK293T cell lysate,1 µM,-0.1%
COc1ccc2c(c1)C(=O)N(CCCN1CCN(c3ccccc3OC)CC1)C2,HTR7,radioligand binding,,"concentration not given, added: [3H]LSD",88.4%
COc1cc(C(=O)c2c[nH]c3cc(-c4ccc(C(F)(F)F)cc4)ccc23)cc(OC)c1OC,"Tubulin alpha-1B chain/TUBB2B (Bos taurus, UniProt P81947+Q6B856)","tubulin polymerization, turbidimetry",,concentration not given,inactive
NC/C(=C\F)COc1cccc(Cn2c(=S)[nH]c(=O)c3[nH]cnc32)c1,"Amine oxidase [copper-containing] 3 (AOC3, Homo sapiens, UniProt Q16853)","H2O2 production, Amplex Red",,"1 µM, recombinant human enzyme",100% and 103%
O=C(NCCCNS(=O)(=O)c1ccc(OC(F)(F)F)cc1)C1=Cc2ccccc2S1(=O)=O,"Tyrosine-protein phosphatase non-receptor type 2 (PTPN2, Homo sapiens, UniProt P17706)",enzyme activity,,"25 to 30 µM, phosphatase selectivity panel",no inhibition
Cn1cc(-c2ccc3c(c2)OCO3)c2ccc(-c3ccncc3)nc21,gag-pol integrase,"strand transfer, inhibitor",HIV-1,10 µM,71.3%
Fc1ccc(-c2ncn(C3=CCCCC3)c2-c2ccncc2)cc1,TGFBR2,inhibitor,,1 µM,30%
OCCCN1CC[C@@H]2C[C@H]1c1cc(-c3ccc(C(F)(F)F)cc3)ccc12,HTR2C,"radioligand binding, PDSP competition binding",,10 µM,< 50%
Cn1cc(-c2ccc(F)cc2)c2ccc(Cl)nc21,gag-pol integrase,"strand transfer, inhibitor",HIV-1,10 µM,38.3%
CN1CCN(c2cc(-c3ccncc3)c(-c3ccc4ccccc4c3)nn2)CC1,"Thromboxane A2 receptor (TBXA2R, Homo sapiens, UniProt P21731)","antagonist, FLIPR",,10 µM,2.6%
